Measurements of several laboratories.
Each line is one published result; not all experiments were run side by side.
Method: steady-state kinetics
B1: TRM10 E111A (Saccharomyces cerevisiae, UniProt Q12400); chain MSNDEINQNEEKVKRTPPLPPVPEGMSKKQWKKMCKRQRWEENKAKYNAERRVKKKRLRHERSAKIQEYIDRGEEVPQELIREPRINVNQTDSGIEIILDCSFDELMNDKAIVSLSNQVTRAYSANRRANHFAEIKVAPFDKRLKQRFETTLKNTNYENWNHFKFLPDDKIMFGDEHISKDKIVYLTADTEEKLEKLEPGMRYIVGGIVDKNRYKELCLKKAQKMGIPTRRLPIDEYINLEGRRVLTTTHVVQLMLKYFDDHNWKNAFESVLPPRKLDAEAKSASSSPAPKDT
B2: protein (Salmo salar, UniProt A0A1S3PN69); chain METRKEHELKIHENGKTSKSPKLCGTNYPVSISFIVVNEFCERFSYYGMKAVLTLYFINYLHWDPNLSTAVYHAFSSLCYFTPVLGALIADSWLGKFKTIVYLSVVYVLGHIVKSVGAIPSVGDSTIHIVLSMVGLILIAFGTGGIKPCVAAFGGDQFDEEHTNERRKFFSIFYMSINGGSVLSTLITPILRGDVQCFGGDCYALAFGVPAILMVVALVVFISGSGMYKKSPPEGNILLDVCKCMGLAIKNRWKSSKYDPKKKHWLDWAEDKYPRRLIHEIKMVLRVLVLYIPLPMFWALFDQQGSRWTLQATRMNMAFGSTFVLKPDQMQMLNALLILVFVPIFDMVVYPLIGLCRINLTPLKKMAVGMIFAALAFGSATLVEVNVTKTVVEPAPQGQCLLQVYNLAVSDVKLNIPGSNLFSQPIKSYEDPPAYQHIQLGGHNKTINMAVTQNEILYQCVQTFTEQKAYTLVLHSNGSGIVCKLATDNIHKSEKMEAYLRFINTRSEAVNITVGAVDFYVPADYGISPHNNVERKEYTNDKCTTGSQDFLITLGLLDFGASYTVILKGDPGEIILQKMEDVKANNVHIAWQIPQYVLITAGEVMFSITGLEFSYSQAPANMKSVLQAGWLLTVAFGNVIVLIVAEGAGLDQWMEFLLFAGLLVAVCIIFSIMAYFYTYVDPDELDKLFPDKAVNDDDEDNLKKNQKYHMDQTDNSMYLNPIEKSTKM
B3: Tcur_2987 W263S (Thermomonospora curvata, UniProt D1A807); chain ACSEERAAGARPSATQTTGTATEPFHGPHQAGIATPPQAHAVFLGLDLRKGTGRKELGRLMRLLTDDARRLTQGRPALADPEPDLAPLPSRLTFTFGFGPGLFKAAGLEKQRPEGLRPLPPFKVDRLEDRWSGGDLLVQICCDDPITLAHALRMTVKDARAFTRVRWVQRGFRRSPGVQSSGATQRNLMGQLDGTVNPVPGTADFDQAVWVQDGPEWLRGGTTLVLRRIRMELEKSDEADPAGKEFAVGRRLTSGAPLTGRHEHDEPDFDAVDSAGFPVIAENAHIRLAHVDSPRLRMLRRPYNYDEGLTADGRSDAGLLFAAYQADIDRQFIPVQRRLDEGGDLLNLWTTPIGSAVFAIPPGCDENGWIGQGLLG
B4: SACOL1063 (Staphylococcus aureus, UniProt Q5HH30); chain MFSKVNNQKMLEDCFYIRKKVFVEEQGVPEESEIDEYESESIHLIGYDNGQPVATARIRPINETTVKIERVAVMKSHRGQGMGRMLMQAVESLAKDEGFYVATMNAQCHAIPFYESLNFKMRGNIFLEEGIEHIEMTKKLTSLN
B5: TRM10 G206A/G207A (Saccharomyces cerevisiae, UniProt Q12400); chain MSNDEINQNEEKVKRTPPLPPVPEGMSKKQWKKMCKRQRWEENKAKYNAERRVKKKRLRHERSAKIQEYIDRGEEVPQELIREPRINVNQTDSGIEIILDCSFDELMNDKEIVSLSNQVTRAYSANRRANHFAEIKVAPFDKRLKQRFETTLKNTNYENWNHFKFLPDDKIMFGDEHISKDKIVYLTADTEEKLEKLEPGMRYIVAAIVDKNRYKELCLKKAQKMGIPTRRLPIDEYINLEGRRVLTTTHVVQLMLKYFDDHNWKNAFESVLPPRKLDAEAKSASSSPAPKDT
B6: pfkA (Thermus thermophilus, UniProt P21777); chain MKRIGVFTSGGDAPGMNAAIRAVVRQAHALGVEVIGIRRGYAGMIQGEMVPLGVRDVANIIQRGGTILLTARSQEFLTEEGRAKAYAKLQAAGIEGLVAIGGDGTFRGALCLVEEHGMPVVGVPGTIDNDLYGTDYTIGFDTAVNTALEAIDRIRDTAASHERVFFIEVMGRHAGFIALDVGLAGGAEVIAVPEEPVDPKAVAEVLEASQRRGKKSSIVVVAEGAYPGGAAGLLAAIREHLQVEARVTVLGHIQRGGSPTAKDRILASRLGAAAVEALVGGASGVMVGEVEGEVDLTPLKEAVERRKDINRALLRLSQVLAL
B7: Tcur_2987 W263F/W376F (Thermomonospora curvata, UniProt D1A807); chain ACSEERAAGARPSATQTTGTATEPFHGPHQAGIATPPQAHAVFLGLDLRKGTGRKELGRLMRLLTDDARRLTQGRPALADPEPDLAPLPSRLTFTFGFGPGLFKAAGLEKQRPEGLRPLPPFKVDRLEDRWSGGDLLVQICCDDPITLAHALRMTVKDARAFTRVRWVQRGFRRSPGVQSSGATQRNLMGQLDGTVNPVPGTADFDQAVWVQDGPEWLRGGTTLVLRRIRMELEKFDEADPAGKEFAVGRRLTSGAPLTGRHEHDEPDFDAVDSAGFPVIAENAHIRLAHVDSPRLRMLRRPYNYDEGLTADGRSDAGLLFAAYQADIDRQFIPVQRRLDEGGDLLNLFTTPIGSAVFAIPPGCDENGWIGQGLLG
B8: Tcur_2987 Y332L (Thermomonospora curvata, UniProt D1A807); chain ACSEERAAGARPSATQTTGTATEPFHGPHQAGIATPPQAHAVFLGLDLRKGTGRKELGRLMRLLTDDARRLTQGRPALADPEPDLAPLPSRLTFTFGFGPGLFKAAGLEKQRPEGLRPLPPFKVDRLEDRWSGGDLLVQICCDDPITLAHALRMTVKDARAFTRVRWVQRGFRRSPGVQSSGATQRNLMGQLDGTVNPVPGTADFDQAVWVQDGPEWLRGGTTLVLRRIRMELEKWDEADPAGKEFAVGRRLTSGAPLTGRHEHDEPDFDAVDSAGFPVIAENAHIRLAHVDSPRLRMLRRPYNLDEGLTADGRSDAGLLFAAYQADIDRQFIPVQRRLDEGGDLLNLWTTPIGSAVFAIPPGCDENGWIGQGLLG
B9: Tcur_2987 (Thermomonospora curvata, UniProt D1A807); chain ACSEERAAGARPSATQTTGTATEPFHGPHQAGIATPPQAHAVFLGLDLRKGTGRKELGRLMRLLTDDARRLTQGRPALADPEPDLAPLPSRLTFTFGFGPGLFKAAGLEKQRPEGLRPLPPFKVDRLEDRWSGGDLLVQICCDDPITLAHALRMTVKDARAFTRVRWVQRGFRRSPGVQSSGATQRNLMGQLDGTVNPVPGTADFDQAVWVQDGPEWLRGGTTLVLRRIRMELEKWDEADPAGKEFAVGRRLTSGAPLTGRHEHDEPDFDAVDSAGFPVIAENAHIRLAHVDSPRLRMLRRPYNYDEGLTADGRSDAGLLFAAYQADIDRQFIPVQRRLDEGGDLLNLWTTPIGSAVFAIPPGCDENGWIGQGLLG
UniProt Q4J9L0, sequence (whole entry, looked up): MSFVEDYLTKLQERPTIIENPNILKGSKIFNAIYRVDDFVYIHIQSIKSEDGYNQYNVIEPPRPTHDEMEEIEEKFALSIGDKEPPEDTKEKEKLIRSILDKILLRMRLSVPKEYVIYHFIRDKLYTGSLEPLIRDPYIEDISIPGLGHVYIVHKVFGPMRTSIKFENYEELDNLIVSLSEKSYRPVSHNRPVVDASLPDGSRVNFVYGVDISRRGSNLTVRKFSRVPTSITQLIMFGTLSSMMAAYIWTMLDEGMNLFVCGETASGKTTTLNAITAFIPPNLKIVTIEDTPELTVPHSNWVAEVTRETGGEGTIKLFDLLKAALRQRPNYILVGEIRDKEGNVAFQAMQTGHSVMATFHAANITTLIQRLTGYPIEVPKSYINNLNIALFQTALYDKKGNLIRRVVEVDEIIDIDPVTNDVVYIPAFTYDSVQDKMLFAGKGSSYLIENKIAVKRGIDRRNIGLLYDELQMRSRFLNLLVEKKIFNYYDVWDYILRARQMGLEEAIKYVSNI
UniProt P05177, sequence (whole entry, looked up): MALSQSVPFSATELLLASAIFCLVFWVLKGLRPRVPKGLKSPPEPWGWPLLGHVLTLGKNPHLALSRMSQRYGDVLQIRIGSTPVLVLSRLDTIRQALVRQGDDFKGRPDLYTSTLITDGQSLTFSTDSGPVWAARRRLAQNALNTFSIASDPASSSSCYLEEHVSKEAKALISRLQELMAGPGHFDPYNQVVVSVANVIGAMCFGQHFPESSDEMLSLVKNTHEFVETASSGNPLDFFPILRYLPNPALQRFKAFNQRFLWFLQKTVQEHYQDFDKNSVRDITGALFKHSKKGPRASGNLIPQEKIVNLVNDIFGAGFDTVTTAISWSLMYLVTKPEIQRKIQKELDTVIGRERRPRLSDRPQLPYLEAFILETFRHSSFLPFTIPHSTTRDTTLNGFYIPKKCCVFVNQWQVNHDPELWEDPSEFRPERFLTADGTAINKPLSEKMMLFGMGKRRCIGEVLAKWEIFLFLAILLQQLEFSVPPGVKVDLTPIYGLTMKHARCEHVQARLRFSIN
UniProt Q6QT07, sequence (whole entry, looked up): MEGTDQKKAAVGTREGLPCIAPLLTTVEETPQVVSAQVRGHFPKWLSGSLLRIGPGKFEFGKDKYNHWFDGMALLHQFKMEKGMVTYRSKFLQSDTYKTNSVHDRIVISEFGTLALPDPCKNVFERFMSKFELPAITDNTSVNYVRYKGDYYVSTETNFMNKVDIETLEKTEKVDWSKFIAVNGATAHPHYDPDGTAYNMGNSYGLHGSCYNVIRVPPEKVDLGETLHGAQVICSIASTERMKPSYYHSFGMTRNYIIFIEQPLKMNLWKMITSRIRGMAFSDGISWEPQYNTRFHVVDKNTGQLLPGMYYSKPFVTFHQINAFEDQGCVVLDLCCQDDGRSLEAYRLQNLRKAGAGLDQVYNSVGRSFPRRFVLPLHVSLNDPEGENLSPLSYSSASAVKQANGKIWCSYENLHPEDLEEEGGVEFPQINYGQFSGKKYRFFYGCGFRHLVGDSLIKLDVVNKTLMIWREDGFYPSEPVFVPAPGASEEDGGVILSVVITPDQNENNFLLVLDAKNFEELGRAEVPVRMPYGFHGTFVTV

CYP1A2 (Homo sapiens, UniProt P05177) — K0.5 (COc1cc2c(cc1CC=C(C)C)C(=O)C[C@@H](c1ccc(O)cc1)O2; pH 7.4, 37 °C): 3 µM
B1 (TRM10 E111A) — K0.5 (C[S+](CC[C@H](N)C(=O)O)C[C@H]1O[C@@H](n2cnc3c(N)ncnc32)[C@H](O)[C@@H]1O; pH 8, 30 °C): 1.4 µM
enzyme (Limosilactobacillus reuteri, UniProt Q8GP32) — K0.5 (OC[C@H]1O[C@@](CO)(O[C@H]2O[C@H](CO)[C@@H](O)[C@H](O)[C@H]2O)[C@@H](O)[C@@H]1O; pH 5.5, 50 °C, apparent): 31000 µM
B2 (protein) — K0.5 (NCC(=O)N[C@@H](CCC(N)=O)C(=O)O; pH 7.6, proton-coupled, at -60 mV, not purified): 24.4 µM
speG (Vibrio cholerae, UniProt Q9KL03) — K0.5 (NCCCNCCCCNCCCN; pH 9, 37 °C): 579 µM
B3 (Tcur_2987 W263S) — K0.5 (Nc1c(S(=O)(=O)O)cc(Nc2cccc(S(=O)(=O)CCOS(=O)(=O)O)c2)c2c1C(=O)c1ccccc1C2=O; pH 3, sigmoidal kinetics, with: H2O2 1 mM): 32 µM
protein (Pseudoalteromonas luteoviolacea, UniProt A0A161XU12) — K0.5 (NCC(=O)O; pH 7.5, 30 °C, positive cooperativity): 187 µM
B4 (SACOL1063) — K0.5 (C[C@@H](O)[C@H](N)C(=O)O; pH 8, 37 °C, Hill coefficient, with: AcCoA 1 mM, L-Thr 0-10 mM): 11600 µM
B5 (TRM10 G206A/G207A) — K0.5 (C[S+](CC[C@H](N)C(=O)O)C[C@H]1O[C@@H](n2cnc3c(N)ncnc32)[C@H](O)[C@@H]1O; pH 8, 30 °C): 77.6 µM
B6 (pfkA) — K0.5 (Nc1ncnc2c1ncn2[C@@H]1O[C@H](COP(=O)(O)OP(=O)(O)OP(=O)(O)O)[C@@H](O)[C@H]1O; pH 8, 25 °C, Hill fit, with: Fru-6-P 5 mM, MgCl2 5 mM): 6 µM
B7 (Tcur_2987 W263F/W376F) — K0.5 (Nc1c(S(=O)(=O)O)cc(Nc2cccc(S(=O)(=O)CCOS(=O)(=O)O)c2)c2c1C(=O)c1ccccc1C2=O; pH 3, sigmoidal kinetics, with: H2O2 1 mM): 26 µM
flaI (Sulfolobus acidocaldarius, UniProt Q4J9L0) — K0.5 (Nc1ncnc2c1ncn2[C@@H]1O[C@H](COP(=O)(O)OP(=O)(O)OP(=O)(O)O)[C@@H](O)[C@H]1O; pH 7.5, 70 °C, NaCl 150 mM, Hill coefficient): 10000 µM
protein (Sinorhizobium meliloti, UniProt Q92T34) — K0.5 (O=CC(=O)O; pH 7.5, 25 °C, NaCl 150 mM, with: NADPH 0.4 mM): 12300 µM
B8 (Tcur_2987 Y332L) — K0.5 (Nc1c(S(=O)(=O)O)cc(Nc2cccc(S(=O)(=O)CCOS(=O)(=O)O)c2)c2c1C(=O)c1ccccc1C2=O; pH 3, sigmoidal kinetics, with: H2O2 1 mM): 37 µM
protein (Sinorhizobium meliloti, UniProt Q92LZ4) — K0.5 (O=C(O)C(=O)CO; pH 7.5, 25 °C, NaCl 150 mM, with: NADPH 0.4 mM): 6140 µM
B9 (Tcur_2987) — K0.5 (Nc1c(S(=O)(=O)O)cc(Nc2cccc(S(=O)(=O)CCOS(=O)(=O)O)c2)c2c1C(=O)c1ccccc1C2=O; pH 3, sigmoidal kinetics, with: H2O2 1 mM): 42 µM
BCO2 (Mustela putorius furo, UniProt Q6QT07) — K0.5 (CC1=C[C@H](O)CC(C)(C)[C@H]1/C=C/C(C)=C/C=C/C(C)=C/C=C/C=C(C)/C=C/C=C(C)/C=C/C1=C(C)C[C@@H](O)CC1(C)C; crude Sf9 lysate; pH 8.5, 37 °C, apparent, not purified, with: FeSO4 10 µM, NAD+ 3 mM): 49.6 µM

A few entries again:
B8 (Tcur_2987 Y332L) — K0.5 (Nc1c(S(=O)(=O)O)cc(Nc2cccc(S(=O)(=O)CCOS(=O)(=O)O)c2)c2c1C(=O)c1ccccc1C2=O; pH 3, sigmoidal kinetics, with: H2O2 1 mM): 37 µM
protein (Sinorhizobium meliloti, UniProt Q92LZ4) — K0.5 (O=C(O)C(=O)CO; pH 7.5, 25 °C, NaCl 150 mM, with: NADPH 0.4 mM): 6140 µM
B9 (Tcur_2987) — K0.5 (Nc1c(S(=O)(=O)O)cc(Nc2cccc(S(=O)(=O)CCOS(=O)(=O)O)c2)c2c1C(=O)c1ccccc1C2=O; pH 3, sigmoidal kinetics, with: H2O2 1 mM): 42 µM
